Experimental data pooled from the literature.
Each line is one published result; not all experiments were run side by side. Values after ≈ are worked out from the molar mass of the structure shown.
Organism: Candida albicans

SMILES	assay	test system	conditions	quantity	result
C[C@@H](c1ccn(Cc2ccc(C#N)cc2)n1)[C@](O)(Cn1cnnn1)c1ccc(F)cc1F	growth, broth microdilution	SC5314	24 h, 30 °C, ≥50% inhibition	MIC	0.016 µg/mL (≈ 0.0367 µM)
c1ccc(CSc2nnc(C34CC5CC(CC(C5)C3)C4)n2-c2ccccc2)cc1	–	IFO 0583	200 µg/disc, 48 h, 37 °C	inhibition zone diameter	< 10 mm
C[C@@H](c1ccn(Cc2ccc(Cl)c(Cl)c2)n1)[C@](O)(Cn1cnnn1)c1ccc(F)cc1F	growth, broth microdilution	SC5314	24 h, 30 °C, ≥50% inhibition	MIC	< 0.008 µg/mL
CCCCCCCCCC1CC2CCC3CC(CCCCCCCCC)NC(=N1)N23 (stereo not shown)	fungal growth	ATCC 90028	–	MFC	5.99 µM (≈ 2.5 µg/mL)
Cc1cccc([N+](=O)[O-])c1NC(=O)CSc1nc2ccccc2c(=O)n1-c1ccc(S(N)(=O)=O)cc1	microbial growth, well diffusion	ATCC10231	500 µg/mL, 72 h	inhibition zone	22 mm
CC1COC(=O)N1/N=C/c1ccc([N+](=O)[O-])o1 (stereo not shown)	microbial growth, broth dilution	ATCC14053	18 h	MIC	> 50 µg/mL
Cn1c(SCCN2CCCCC2)nnc1C12CC3CC(CC(C3)C1)C2	–	IFO 0583	200 µg/disc, 48 h, 37 °C	inhibition zone diameter	< 10 mm
C/C(=N\Nc1nc(-c2ccccc2)cs1)c1ccc2c(c1)sc1nc(=O)c(C#N)cn12	microbial growth, broth dilution	–	–	MIC	< 238 µg/mL
CCCCCC1CC2CCCC3CC(C)N=C(N1)N32 (stereo not shown)	fungal growth	ATCC 90028	–	MFC	31.7 µM (≈ 8.36 µg/mL)
COc1cc(NC(=O)CSc2nc3ccccc3c(=O)n2-c2ccc(S(N)(=O)=O)cc2)cc(OC)c1OC	microbial growth, well diffusion	ATCC10231	500 µg/mL, 72 h	inhibition zone	14 mm
C[C@@H](c1ccn(Cc2cccc(Cl)c2F)n1)[C@](O)(Cn1cnnn1)c1ccc(F)cc1F	growth, broth microdilution	SC5314	24 h, 30 °C, ≥50% inhibition	MIC	< 0.008 µg/mL
CC(C)=CCc1cc([C@@H]2CC(=O)c3ccc(O)c(CC=C(C)C)c3O2)c(O)c(CC=C(C)C)c1O	–	ATCC 10231	concentration not given	antibacterial activity	inactive
C[C@@H](c1ccn(Cc2c(F)cccc2F)n1)[C@](O)(Cn1cnnn1)c1ccc(F)cc1F	growth, broth microdilution	SC5314	24 h, 30 °C, ≥50% inhibition	MIC	< 0.008 µg/mL
O=c1c2ccccc2sn1-c1cc(Br)cc(Br)c1	growth, broth dilution	ATCC MYA-2310 (susceptible)	MIC-0	MIC	6.25 µg/mL (≈ 16.2 µM)
COc1cc(NC(=O)CSc2nc3ccccc3c(=O)n2-c2ccc(S(N)(=O)=O)cc2)cc(OC)c1	microbial growth, well diffusion	ATCC10231	500 µg/mL, 72 h	inhibition zone	20 mm
CC(=O)[O-].O.O.[O-]c1ccc(Br)cc1C=NCCN1CCOCC1.[Zn+2]	–	–	20 µL of 100 µM per disc	inhibition zone diameter	27 mm
CCCn1ccc([C@H](C)[C@](O)(Cn2cnnn2)c2ccc(F)cc2F)n1	growth, broth microdilution	SC5314	24 h, 30 °C, ≥50% inhibition	MIC	0.0156 µg/mL (≈ 0.043 µM)
Cc1ccccc1C=NNC(=O)c1ccc(-c2nc3cc(F)ccc3[nH]2)cc1	microbial growth	ATCC24433	–	MIC90	> 1000 µg/mL
C[C@@H](c1ccn(Cc2c(F)ccc(F)c2F)n1)[C@](O)(Cn1cnnn1)c1ccc(F)cc1F	growth, broth microdilution	SC5314	24 h, 30 °C, ≥50% inhibition	MIC	< 0.008 µg/mL

SMILES	assay	test system	conditions	quantity	result
CCN(CC)CCn1nc(C23CC4CC(CC(C4)C2)C3)n(C)c1=S	–	IFO 0583	200 µg/disc, 48 h, 37 °C	inhibition zone diameter	< 10 mm
N=C(N)NCCC[C@@H]1NC(=O)[C@H](CCCNC(=N)N)NC(=O)[C@H](CCCNC(=N)N)NC(=O)[C@H](Cc2ccc3ccccc3c2)NC(=O)[C@H](Cc2c[nH]c3ccccc23)NC(=O)[C@H](Cc2ccc3ccccc3c2)NC(=O)[C@H](CCCNC(=N)N)NC1=O	XTT	ATCC 60193	2 × MIC	biofilm mass reduction	60 to 62%
C[C@@H](c1ccn(Cc2ccc(C(C)(C)C)cc2)n1)[C@](O)(Cn1cnnn1)c1ccc(F)cc1F	growth, broth microdilution	SC5314	24 h, 30 °C, ≥50% inhibition	MIC	2 µg/mL (≈ 4.29 µM)
Fc1ccc(CSc2nnc(C34CC5CC(CC(C5)C3)C4)n2-c2ccccc2)cc1	–	IFO 0583	200 µg/disc, 48 h, 37 °C	inhibition zone diameter	< 10 mm
C[C@@H](c1ccn(Cc2ccc(F)c(C(F)(F)F)c2)n1)[C@](O)(Cn1cnnn1)c1ccc(F)cc1F	growth, broth microdilution	SC5314	24 h, 30 °C, ≥50% inhibition	MIC	0.0625 µg/mL (≈ 0.126 µM)
COc1ccc2c(oc3c4ccc(O)cc4oc(=O)c23)c1CC=C(C)C	–	ATCC 10231	concentration not given	antibacterial activity	inactive
NS(=O)(=O)c1ccc(-n2c(SCC(=O)Nc3ccc([N+](=O)[O-])cc3[N+](=O)[O-])nc3ccccc3c2=O)cc1	microbial growth, well diffusion	ATCC10231	500 µg/mL, 72 h	inhibition zone	24 mm
CN(C)CCn1nc(C23CC4CC(CC(C4)C2)C3)n(C)c1=S	–	IFO 0583	200 µg/disc, 48 h, 37 °C	inhibition zone diameter	< 10 mm
CC(C)=CCc1cc([C@@H]2CC(=O)c3c(O)cc(O)c(CC=C(C)C)c3O2)cc(CC=C(C)C)c1O	–	ATCC 10231	concentration not given	antibacterial activity	inactive
COc1ccc(/N=N/C(=S)N2CCCC2)cc1	microbial growth	ATCC10231	24 h	IC50	> 50 µM
COc1c(CC=C(C)C)c(O)cc2c1-c1oc3c(CC=C(C)C)c(O)ccc3c1CO2	–	ATCC 10231	concentration not given	antibacterial activity	inactive
Cc1cc([N+](=O)[O-])ccc1NC(=O)CSc1nc2ccccc2c(=O)n1-c1ccc(S(N)(=O)=O)cc1	microbial growth, well diffusion	ATCC10231	500 µg/mL, 72 h	inhibition zone	27 mm
COc1ccccc1N1CCN(Cn2nc(C34CC5CC(CC(C5)C3)C4)n(-c3ccccc3)c2=S)CC1	–	IFO 0583	200 µg/disc, 48 h, 37 °C	inhibition zone diameter	< 10 mm
CC(=NNC(=N)N)c1nnn(-c2ccc(C#CC3(O)CCCCC3)cc2)c1C	–	ATCC 10231	–	MBC	31.2 µg/mL (≈ 82.4 µM)
Cn1c(C23CC4CC(CC(C4)C2)C3)nn(CCN2CCCCC2)c1=S	–	IFO 0583	200 µg/disc, 48 h, 37 °C	inhibition zone diameter	< 10 mm
CCc1ccc(NC(=O)CSc2nc3ccccc3c(=O)n2-c2ccc(S(N)(=O)=O)cc2)cc1	microbial growth, well diffusion	ATCC10231	500 µg/mL, 72 h	inhibition zone	18 mm
Cn1c(SCCN2CCCC2)nnc1C12CC3CC(CC(C3)C1)C2	–	IFO 0583	200 µg/disc, 48 h, 37 °C	inhibition zone diameter	< 10 mm
COc1ccc(/N=N/C(=S)N2CCOCC2)cc1	microbial growth	ATCC10231	24 h	IC50	> 50 µM

For quick reference, copied from above:
SMILES	assay	test system	conditions	quantity	result
C[C@@H](c1ccn(Cc2cccc(Cl)c2F)n1)[C@](O)(Cn1cnnn1)c1ccc(F)cc1F	growth, broth microdilution	SC5314	24 h, 30 °C, ≥50% inhibition	MIC	< 0.008 µg/mL
CC(C)=CCc1cc([C@@H]2CC(=O)c3ccc(O)c(CC=C(C)C)c3O2)c(O)c(CC=C(C)C)c1O	–	ATCC 10231	concentration not given	antibacterial activity	inactive
C[C@@H](c1ccn(Cc2c(F)cccc2F)n1)[C@](O)(Cn1cnnn1)c1ccc(F)cc1F	growth, broth microdilution	SC5314	24 h, 30 °C, ≥50% inhibition	MIC	< 0.008 µg/mL
O=c1c2ccccc2sn1-c1cc(Br)cc(Br)c1	growth, broth dilution	ATCC MYA-2310 (susceptible)	MIC-0	MIC	6.25 µg/mL (≈ 16.2 µM)
COc1cc(NC(=O)CSc2nc3ccccc3c(=O)n2-c2ccc(S(N)(=O)=O)cc2)cc(OC)c1	microbial growth, well diffusion	ATCC10231	500 µg/mL, 72 h	inhibition zone	20 mm
